Experimental data gathered from unrelated publications.
Lines come from different studies, so protocols differ.
RET V804M: Proto-oncogene tyrosine-protein kinase receptor Ret (RET, Homo sapiens, UniProt P07949, V804M)
RET: Proto-oncogene tyrosine-protein kinase receptor Ret (RET, Homo sapiens, UniProt P07949)
RET M918T: Proto-oncogene tyrosine-protein kinase receptor Ret (RET, Homo sapiens, UniProt P07949, M918T)
RET V804L: Proto-oncogene tyrosine-protein kinase receptor Ret (RET, Homo sapiens, UniProt P07949, V804L)

SMILES = CNC(=O)C1CCN(c2cc(C)c(F)cc2NC(=O)c2ccc(-c3cc(O)ccc3C)c(C)c2)CC1; target = RET V804M; assay = binding, competition with immobilised ligand; conditions = 1 µM; remaining binding = 98%
SMILES = CC(C)=CC1OC(C)(C)C2C=C3C(=O)C(Cl)=CC(O)C3C3C(O)C4OC4C(=O)C132 (stereo not shown); target = RET; assay = cell-free assay, competition with immobilised ligand; conditions = 10 µM; remaining binding = 95%
SMILES = CNC1C[S+]2CC[S+]3CC[S+](C1)[Ru-4]321([N]=C=S)[n]2c3ccc(OC)cc3c3c4c(c5cc(F)c[n+]1c5c32)C(=O)NC4=O (stereo not shown); target = RET M918T; assay = KinomeScan; conditions = 0.1 µM; scale = relative to: untreated; remaining binding = 100%
SMILES = Cc1cnc2nc1Nc1cccc(c1)COC/C=C/COCc1cc(ccc1OCCN1CCOCC1)N2; target = RET M918T; assay = binding; conditions = 0.1 µM; remaining binding = 48%
SMILES = CCN1CCN(Cc2ccc(C(=O)Nc3ccc(C)c(NCc4cnc5[nH]ccc5c4OC)c3)cc2C(F)(F)F)CC1; target = RET; assay = binding, competition with immobilised ligand; conditions = 1 µM; remaining binding = 0.25%
SMILES = COc1c(Cl)cccc1Nc1c(-c2ccncc2C#C[C@@]2(C)CCCN2C(=O)/C=C/CN(C)C)[nH]c2c1C(=O)NCC2; target = RET; assay = binding, competition with immobilised ligand; conditions = 3 µM; remaining binding = 100%
SMILES = Nc1ncc2c(n1)-c1c([nH]c3ccc(C4=CCOCC4)cc13)CCC2; target = RET V804L; assay = binding, competition with immobilised ligand; conditions = 1 µM; remaining binding = 100%
SMILES = C=CC(=O)N1CCc2ccc(-n3c(=O)ccc4cnc5ccc(-c6cnn(C)c6)cc5c43)cc21; target = RET M918T; assay = KINOMEscan; conditions = 1 µM; scale = relative to: DMSO control; remaining binding = 98%
SMILES = Cc1ccc(-c2c(/C=C(\C#N)C(=O)NC(C)C)n(CCCO)c3ncnc(N)c23)cc1; target = RET V804M; assay = cell-free assay, competition with immobilised ligand; conditions = 1 µM; remaining binding = 100%
SMILES = C=CC(=O)N1CCCC(n2c(=O)c3ncccc3n(Cc3ccc(Oc4ccccc4)cc3)c2=O)C1 (stereo not shown); target = RET V804L; assay = cell-free assay, competition with immobilised ligand; conditions = 1 µM; remaining binding = 96%
